Results gathered from unrelated publications.
Parts stem from different laboratories: compare values within a part only.
Sequence of UniProt Q9Y2X8 (whole entry, looked up): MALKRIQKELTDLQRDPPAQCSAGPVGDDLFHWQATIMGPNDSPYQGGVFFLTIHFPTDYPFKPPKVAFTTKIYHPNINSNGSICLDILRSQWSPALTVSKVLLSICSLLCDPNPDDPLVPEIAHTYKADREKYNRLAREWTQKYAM

Study 1
Target: Eukaryotic initiation factor 4A-I (EIF4A1, Homo sapiens, UniProt P60842, residues 1-406, full length assumed)
Sequence of UniProt P60842 (whole entry, looked up): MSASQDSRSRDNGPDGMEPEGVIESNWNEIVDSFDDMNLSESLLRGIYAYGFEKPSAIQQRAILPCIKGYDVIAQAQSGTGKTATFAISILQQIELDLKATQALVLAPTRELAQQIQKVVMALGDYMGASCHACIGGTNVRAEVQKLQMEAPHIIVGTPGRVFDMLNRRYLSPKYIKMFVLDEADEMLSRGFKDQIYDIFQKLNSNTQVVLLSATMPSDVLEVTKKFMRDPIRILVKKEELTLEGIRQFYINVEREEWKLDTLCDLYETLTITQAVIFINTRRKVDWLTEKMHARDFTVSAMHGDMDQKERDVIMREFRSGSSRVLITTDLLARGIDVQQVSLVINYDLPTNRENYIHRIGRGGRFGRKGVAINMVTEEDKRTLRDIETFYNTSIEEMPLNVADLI
Technique: RNA Bind-n-Seq
Molecule type: RNA
Matrix: in vitro
Concentration: not given
Notes: 4-mer, random 30-nt RNA, single round
With: RocA, ADP, phosphate
Relative to: input library
Direction: higher = stronger binding
| Oligonucleotide | 4-mer enrichment [fold] |
| --- | --- |
| AGUG | 1.77 |
| AUGC | 0.701 |
| UUCU | 0.578 |
| AUUC | 0.605 |
| CGAC | 0.621 |
| CCUC | 0.503 |
| UUAA | 0.994 |
| CCAC | 0.607 |

Study 2
Target: Fragile X messenger ribonucleoprotein 1, C-terminal low-complexity region (Fmr1, Mus musculus, UniProt P35922)
Technique: RNA Bind-n-Seq
Molecule type: RNA
Matrix: in vitro
Concentration: 200 nM
Notes: whole 134-nt RNA, ends assumed
With: 150 mM LiCl
Relative to: input library
Direction: higher = stronger binding
All molecules: 7-deaza-guanosine replaces G
| Oligonucleotide | log2 enrichment |
| --- | --- |
| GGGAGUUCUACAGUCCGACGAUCUAACUUUAGAGGAGGAUCUGAUGGAUAUGGCAGUGGACGUGGAUUUGGGUAUGGCUAUAAUGGGUAUGGAGGAGGACCUGGAGGUGGCAAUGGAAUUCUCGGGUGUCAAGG | -0.131 |
| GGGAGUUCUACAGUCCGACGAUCCUCAAGUCCUGUGCUACACAUCGUAUGUACCGAAUCGGGUUGGUUGGGUUGGGAAAGUAUUAUGUUACGCCGUUCGGAUCUGCACUUCCAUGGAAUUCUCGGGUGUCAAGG | -0.414 |
| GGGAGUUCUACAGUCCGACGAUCUUCCCCUGGAGGGCGCCUCCAUCCUUGGAGGCCUAGUGCCGUCGGAGAGAGAGCGGGAGCCGCGGACAGAGACGCGUGCGCAAUUCGGAGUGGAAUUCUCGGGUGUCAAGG | -1.17 |
| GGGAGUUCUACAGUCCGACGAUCCCUGUGCUACACAUCGUAUGUACCGAAUCGGCCCCCCGGGGCCCCCCGGGGCCCCCCGGGAAAGUAUUAUGUUACGCCGUUCGGAUCUGCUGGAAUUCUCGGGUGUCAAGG | -3.37 |
| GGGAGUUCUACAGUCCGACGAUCACCAUGCAGGUGGGCAUCUUUGGGAAGUGGGGCAAGGGGGGGAUAGGGAGGGGGGUAACACAUUGGGAACAGGUGGUCCCAGGUCGUUUCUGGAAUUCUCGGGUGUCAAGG | 1.39 |
| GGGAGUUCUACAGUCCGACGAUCCAAGUCCUGUGCUACACAUCGUAUGUACCGAAUCGGCCCGGGGCCCGGGCCCGGGGAAAGUAUUAUGUUACGCCGUUCGGAUCUGCACUUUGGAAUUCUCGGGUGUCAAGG | -2.11 |
| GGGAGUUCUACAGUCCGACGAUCUCCUGUGCUACACAUCGUAUGUACCGAAUCGGCCCCCCGGGCCCCCCGGGCCCCCCGGGGAAAGUAUUAUGUUACGCCGUUCGGAUCUGCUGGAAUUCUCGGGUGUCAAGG | -2.2 |
| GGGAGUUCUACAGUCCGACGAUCAGUCCUGUGCUACACAUCGUAUGUACCGAAUCGGGGUUUUGGGGUUUUGGUUUUGGGAAAGUAUUAUGUUACGCCGUUCGGAUCUGCACUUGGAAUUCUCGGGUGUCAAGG | -2.35 |

Other studies, line by line
| Sequence | target | test | system | conditions | how to read | quantity | value |
| --- | --- | --- | --- | --- | --- | --- | --- |
| LVKDFNPYITCYICKGYLIKPTTVTECLHTFCKTCIVQHFEDSNDCPRCGNQVHETNPLE (PCGF5 RING domain (UniProt Q86SE9)) | UBE2D4 UBC core domain (UniProt Q9Y2X8) | yeast two-hybrid | yeast | mostly zero background | relative to: not given, higher = stronger interaction | lacZ reporter activity | 0 |
| LMLHQQYNQ | HLA class I histocompatibility antigen, A alpha chain, allele A*25:01 (Homo sapiens, UniProt P04439) | peptide-MHC binding | peptide | concentration not given |  | binding | inactive |

Some of these lines once more (study 2):
| Oligonucleotide | log2 enrichment |
| --- | --- |
| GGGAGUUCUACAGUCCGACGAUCAGUCCUGUGCUACACAUCGUAUGUACCGAAUCGGGGUUUUGGGGUUUUGGUUUUGGGAAAGUAUUAUGUUACGCCGUUCGGAUCUGCACUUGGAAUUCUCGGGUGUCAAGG | -2.35 |
| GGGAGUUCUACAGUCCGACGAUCUAACUUUAGAGGAGGAUCUGAUGGAUAUGGCAGUGGACGUGGAUUUGGGUAUGGCUAUAAUGGGUAUGGAGGAGGACCUGGAGGUGGCAAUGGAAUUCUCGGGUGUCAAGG | -0.131 |
